Experimental data of several laboratories.
Each line is one published result; not all experiments were run side by side. Values joined by “and” are separate records of one study, mostly repeats; a detail may differ.
Target: Interleukin-1 receptor-associated kinase 4 (IRAK4, Homo sapiens, UniProt Q9NWZ3)
UniProt Q9NWZ3, sequence (whole entry, looked up): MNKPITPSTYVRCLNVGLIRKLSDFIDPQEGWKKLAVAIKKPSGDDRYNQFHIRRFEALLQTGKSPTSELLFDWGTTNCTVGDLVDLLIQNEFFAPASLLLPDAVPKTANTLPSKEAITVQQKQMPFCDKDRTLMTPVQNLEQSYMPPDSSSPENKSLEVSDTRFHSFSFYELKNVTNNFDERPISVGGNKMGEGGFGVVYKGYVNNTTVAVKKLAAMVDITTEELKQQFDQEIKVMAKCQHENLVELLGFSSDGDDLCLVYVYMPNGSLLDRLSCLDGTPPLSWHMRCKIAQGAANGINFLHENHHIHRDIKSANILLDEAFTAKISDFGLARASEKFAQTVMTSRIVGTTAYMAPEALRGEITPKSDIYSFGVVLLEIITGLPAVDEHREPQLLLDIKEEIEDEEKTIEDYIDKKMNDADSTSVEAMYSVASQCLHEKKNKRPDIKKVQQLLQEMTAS

| SMILES | assay | test system | setting | scale | measurement | result |
| --- | --- | --- | --- | --- | --- | --- |
| N[C@H]1CC[C@H](Nc2nccc(-c3cccnc3Oc3ccc(NC(=O)NC4CC4)c4ccccc34)n2)CC1 | kinobead competition pulldown | HEK293/HCT116 lysate mixture | 10 µM, 1 h, 4 °C | lower = stronger competition | log2 LFQ intensity | 26.1 and 26 |
| COc1cc(Nc2nccc(-c3cnn4nc(OC)ccc34)n2)cc(C(F)(F)F)c1 | binding, competition with immobilised ligand | – | 1 µM | – | remaining binding | 97% |
| Cc1[nH]nc2c1N=C(c1ccccc1Cl)c1cnc(N3CCOCC3)cc1N2 | enzyme activity, inhibitor | – | 0.5 µM | – | inhibition | 49.3% |
| Cn1cc(-c2ccc3[nH]c4nccc(N[C@H]5CC[C@H](N6CCOCC6)CC5)c4c3c2)cn1 | enzyme activity, AlphaScreen | – | 1 µM, with: ATP 25 µM | – | inhibition | 100% |
| O=C=[N][Ru-4]123([n]4c5ccc(O)cc5c5c6c(c7cc(F)c[n+]1c7c54)C(=O)NC6=O)[S+]1CC[S+]2CC[S+]3CC1 (centres unmarked) | enzyme activity | – | 100 nM, human enzyme, with: 10 µM ATP | relative to: untreated | remaining activity | 108% |
| Cc1cccc(O[C@H]2CCC[C@@H](C(C)CNCc3ccncc3)C2)c1 (relative stereo) | kinase activity, kinome panel screening | – | 1 µM | – | inhibition | -3% |
| Fc1cncc(-c2ccc3[nH]c4ncnc(N[C@H]5CC[C@H](N6CCOCC6)CC5)c4c3c2)c1 | enzyme activity, inhibitor, radiometric | – | 1 µM | – | inhibition | > 98% |
| COc1ccc(NC(=O)Nc2ccc3c(c2)C(=O)N(C(C)CO)CC(C)C(CN(C)Cc2ccc4c(c2)OCO4)O3)cc1 (centres unmarked) | kinase activity, KinaseProfiler | – | 0.03 µM, species human | relative to: control | remaining activity | 106% |
| NC(=O)[C@@H](O)C[C@H]1CCc2sc3ncnc(O[C@H]4CC[C@H](N5CCOCC5)CC4)c3c21 | enzyme activity, inhibitor | – | 10 µM | – | inhibition | 100% |
| C=CC(=O)N1CCc2ccc(-n3c(=O)ccc4cnc5ccc(-c6cnn(C)c6)cc5c43)cc21 | KINOMEscan | – | 1 µM | relative to: DMSO control | remaining binding | 100% |
| Cc1ccc(-c2c(/C=C(\C#N)C(=O)NC(C)C)n(CCCO)c3ncnc(N)c23)cc1 | cell-free assay, competition with immobilised ligand | – | 1 µM | – | remaining binding | 96% |
| C=CC(=O)Nc1cccc(-c2cnc3[nH]cc(C(=O)NC(C)(C)C)c3n2)c1 | kinase activity | – | 0.1 µM | – | inhibition | -7% and 1% |
| O=C(Cc1ccc(OCc2ccccc2)cc1)NC1(C(=O)O)CCN(C(=O)c2ccc(-c3cccc(Cl)c3)cc2)CC1 | enzyme activity, inhibitor | – | 10 µM | – | activity vs control | 152% |
| c1ccc2c(Nc3cc(C4CCC4)[nH]n3)nc(Nc3ccc4nc[nH]c4c3)nc2c1 | enzyme activity, inhibitor | – | 0.25 µM | – | remaining activity | 5% |
| C[C@H]1CN(C(=O)c2cn(-c3ccnc(N)n3)c3cc(C#CC4(O)CCCCC4)ccc23)CCN1 | enzyme activity, inhibitor, FRET | – | 1 µM | – | inhibition | -3% |
| CNC(=O)C1CCN(c2cc(C)c(F)cc2NC(=O)c2ccc(-c3cc(O)ccc3C)c(C)c2)CC1 | binding, competition with immobilised ligand | – | 1 µM | – | remaining binding | 79% |
| Nc1ncc2c(n1)-c1c([nH]c3ccc(C4=CCOCC4)cc13)CCC2 | binding, competition with immobilised ligand | – | 1 µM | – | remaining binding | 100% |
| COCC12C(=O)NC3C4(C(OC)CC1O)C1CC5(O)C(OC)C(O)C(OC(C)=O)(C1C5OC(=O)c1ccccc1)C3(O)C(OC)C24 (centres unmarked) | kinase activity, inhibitor, ProQinase kinase profiling | – | 25 µM | relative to: control | remaining activity | 97% and 104% |
| CCN1CCN(Cc2ccc(C(=O)Nc3ccc(C)c(NCc4cnc5[nH]ccc5c4OC)c3)cc2C(F)(F)F)CC1 | binding, competition with immobilised ligand | – | 1 µM | – | remaining binding | 86% |
| Cc1cnc2nc1Nc1cccc(c1)COC/C=C/COCc1cc(ccc1OCCN1CCOCC1)N2 | cell-free assay | – | 0.1 µM | – | remaining signal | 81% |

Repeated from above:
| SMILES | assay | test system | setting | scale | measurement | result |
| --- | --- | --- | --- | --- | --- | --- |
| Cc1cccc(O[C@H]2CCC[C@@H](C(C)CNCc3ccncc3)C2)c1 (relative stereo) | kinase activity, kinome panel screening | – | 1 µM | – | inhibition | -3% |
| Fc1cncc(-c2ccc3[nH]c4ncnc(N[C@H]5CC[C@H](N6CCOCC6)CC5)c4c3c2)c1 | enzyme activity, inhibitor, radiometric | – | 1 µM | – | inhibition | > 98% |
